Published values gathered from unrelated publications.
Lines come from different studies, so protocols differ. ± marks the error that the study gave.
Sequence of UniProt P36896 (whole entry, looked up): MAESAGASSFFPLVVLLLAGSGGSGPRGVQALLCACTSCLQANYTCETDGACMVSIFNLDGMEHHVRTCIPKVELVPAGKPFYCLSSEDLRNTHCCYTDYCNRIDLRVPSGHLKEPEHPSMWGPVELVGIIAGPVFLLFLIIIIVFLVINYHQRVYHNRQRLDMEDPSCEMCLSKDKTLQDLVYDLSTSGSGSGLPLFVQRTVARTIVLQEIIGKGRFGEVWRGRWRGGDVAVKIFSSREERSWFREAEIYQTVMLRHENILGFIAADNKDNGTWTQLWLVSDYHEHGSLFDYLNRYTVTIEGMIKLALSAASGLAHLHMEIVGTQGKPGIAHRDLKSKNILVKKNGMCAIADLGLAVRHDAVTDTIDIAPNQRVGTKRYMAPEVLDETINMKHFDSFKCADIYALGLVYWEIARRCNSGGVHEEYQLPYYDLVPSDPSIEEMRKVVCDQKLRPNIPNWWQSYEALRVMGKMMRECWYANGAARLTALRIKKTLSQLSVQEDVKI
Sequence of UniProt Q16288 (whole entry, looked up): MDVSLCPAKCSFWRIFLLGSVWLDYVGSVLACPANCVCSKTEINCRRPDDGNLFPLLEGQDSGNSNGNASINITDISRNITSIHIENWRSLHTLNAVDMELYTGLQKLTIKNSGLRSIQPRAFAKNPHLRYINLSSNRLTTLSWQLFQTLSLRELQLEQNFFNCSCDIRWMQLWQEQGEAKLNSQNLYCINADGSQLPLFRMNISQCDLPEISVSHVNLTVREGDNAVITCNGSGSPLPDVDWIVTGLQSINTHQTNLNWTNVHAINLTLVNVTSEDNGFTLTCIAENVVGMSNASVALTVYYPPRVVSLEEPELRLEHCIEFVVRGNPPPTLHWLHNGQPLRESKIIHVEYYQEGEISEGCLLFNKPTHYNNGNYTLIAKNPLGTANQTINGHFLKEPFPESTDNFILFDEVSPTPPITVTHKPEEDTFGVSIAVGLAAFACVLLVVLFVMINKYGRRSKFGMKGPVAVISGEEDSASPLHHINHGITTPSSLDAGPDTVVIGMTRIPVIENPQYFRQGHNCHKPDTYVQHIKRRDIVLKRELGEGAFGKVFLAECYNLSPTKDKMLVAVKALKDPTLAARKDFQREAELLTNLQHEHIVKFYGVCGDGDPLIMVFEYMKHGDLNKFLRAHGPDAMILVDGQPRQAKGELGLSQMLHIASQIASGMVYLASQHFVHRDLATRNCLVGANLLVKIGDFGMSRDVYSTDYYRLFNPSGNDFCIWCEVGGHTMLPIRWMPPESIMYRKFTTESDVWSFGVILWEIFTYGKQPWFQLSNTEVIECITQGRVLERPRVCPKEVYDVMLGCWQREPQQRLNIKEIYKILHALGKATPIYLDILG
Sequence of UniProt Q9Y2J8 (whole entry, looked up): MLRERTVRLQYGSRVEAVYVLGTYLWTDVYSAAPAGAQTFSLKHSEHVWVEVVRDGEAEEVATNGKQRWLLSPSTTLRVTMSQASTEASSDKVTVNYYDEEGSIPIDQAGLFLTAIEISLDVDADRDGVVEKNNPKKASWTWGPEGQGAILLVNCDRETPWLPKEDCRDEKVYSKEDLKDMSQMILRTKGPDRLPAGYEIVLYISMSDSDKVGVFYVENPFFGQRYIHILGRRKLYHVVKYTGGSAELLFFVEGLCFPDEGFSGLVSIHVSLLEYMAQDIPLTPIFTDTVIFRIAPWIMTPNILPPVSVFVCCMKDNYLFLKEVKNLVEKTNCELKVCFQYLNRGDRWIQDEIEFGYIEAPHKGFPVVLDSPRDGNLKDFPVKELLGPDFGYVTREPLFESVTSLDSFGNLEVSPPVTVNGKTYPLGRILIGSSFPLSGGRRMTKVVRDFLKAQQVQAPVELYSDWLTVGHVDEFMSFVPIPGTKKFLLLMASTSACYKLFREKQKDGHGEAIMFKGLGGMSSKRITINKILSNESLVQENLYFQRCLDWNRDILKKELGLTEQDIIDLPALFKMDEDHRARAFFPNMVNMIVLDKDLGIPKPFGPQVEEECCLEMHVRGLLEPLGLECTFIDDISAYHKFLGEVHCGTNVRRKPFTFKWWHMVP
Sequence of UniProt Q15059 (whole entry, unmodified, looked up): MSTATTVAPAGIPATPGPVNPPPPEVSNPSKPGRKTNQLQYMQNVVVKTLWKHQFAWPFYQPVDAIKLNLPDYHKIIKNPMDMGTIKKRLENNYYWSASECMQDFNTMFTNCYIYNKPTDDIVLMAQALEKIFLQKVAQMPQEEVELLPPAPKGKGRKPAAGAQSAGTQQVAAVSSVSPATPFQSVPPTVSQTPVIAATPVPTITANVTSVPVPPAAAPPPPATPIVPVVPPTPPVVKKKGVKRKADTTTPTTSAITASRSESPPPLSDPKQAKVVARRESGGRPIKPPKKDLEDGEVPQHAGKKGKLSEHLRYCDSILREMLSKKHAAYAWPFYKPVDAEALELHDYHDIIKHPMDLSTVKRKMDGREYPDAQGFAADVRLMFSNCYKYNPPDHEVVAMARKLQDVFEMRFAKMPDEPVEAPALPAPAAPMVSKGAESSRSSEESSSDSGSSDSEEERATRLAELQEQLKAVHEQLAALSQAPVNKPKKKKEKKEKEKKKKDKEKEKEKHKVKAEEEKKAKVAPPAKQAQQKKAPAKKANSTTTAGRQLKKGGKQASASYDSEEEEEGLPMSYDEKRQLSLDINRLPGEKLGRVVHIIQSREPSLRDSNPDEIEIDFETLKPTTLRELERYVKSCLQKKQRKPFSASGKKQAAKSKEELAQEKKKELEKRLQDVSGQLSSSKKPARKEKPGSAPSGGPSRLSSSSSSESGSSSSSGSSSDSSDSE
Sequence of UniProt Q86UX6 (whole entry, looked up): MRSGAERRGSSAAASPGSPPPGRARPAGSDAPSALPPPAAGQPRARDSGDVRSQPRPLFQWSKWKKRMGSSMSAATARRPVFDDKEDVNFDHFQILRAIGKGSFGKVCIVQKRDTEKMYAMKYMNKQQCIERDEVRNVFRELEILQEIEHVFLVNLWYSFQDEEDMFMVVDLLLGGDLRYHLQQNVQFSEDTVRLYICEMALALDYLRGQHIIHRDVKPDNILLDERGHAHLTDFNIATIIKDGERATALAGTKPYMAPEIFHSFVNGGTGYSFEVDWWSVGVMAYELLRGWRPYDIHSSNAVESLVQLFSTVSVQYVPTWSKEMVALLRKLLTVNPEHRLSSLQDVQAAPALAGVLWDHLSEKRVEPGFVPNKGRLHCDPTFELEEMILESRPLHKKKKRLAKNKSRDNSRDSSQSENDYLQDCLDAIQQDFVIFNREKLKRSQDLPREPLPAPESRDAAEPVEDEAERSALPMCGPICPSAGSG
Sequence of UniProt P07948 (whole entry, looked up): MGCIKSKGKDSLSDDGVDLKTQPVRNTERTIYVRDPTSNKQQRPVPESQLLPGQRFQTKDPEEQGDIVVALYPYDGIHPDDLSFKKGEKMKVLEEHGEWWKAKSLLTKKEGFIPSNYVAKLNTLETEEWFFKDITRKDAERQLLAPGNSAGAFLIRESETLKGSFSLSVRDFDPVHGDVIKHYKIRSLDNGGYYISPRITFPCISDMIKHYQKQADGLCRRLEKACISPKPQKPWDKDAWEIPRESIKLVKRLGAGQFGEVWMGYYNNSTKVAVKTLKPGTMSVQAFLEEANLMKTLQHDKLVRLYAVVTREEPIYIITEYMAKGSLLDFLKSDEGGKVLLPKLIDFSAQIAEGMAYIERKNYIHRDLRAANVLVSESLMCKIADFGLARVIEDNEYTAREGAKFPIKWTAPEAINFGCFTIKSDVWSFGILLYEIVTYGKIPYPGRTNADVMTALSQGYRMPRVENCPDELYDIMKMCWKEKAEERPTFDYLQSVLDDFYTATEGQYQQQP
Sequence of UniProt Q3U213 (whole entry, looked up): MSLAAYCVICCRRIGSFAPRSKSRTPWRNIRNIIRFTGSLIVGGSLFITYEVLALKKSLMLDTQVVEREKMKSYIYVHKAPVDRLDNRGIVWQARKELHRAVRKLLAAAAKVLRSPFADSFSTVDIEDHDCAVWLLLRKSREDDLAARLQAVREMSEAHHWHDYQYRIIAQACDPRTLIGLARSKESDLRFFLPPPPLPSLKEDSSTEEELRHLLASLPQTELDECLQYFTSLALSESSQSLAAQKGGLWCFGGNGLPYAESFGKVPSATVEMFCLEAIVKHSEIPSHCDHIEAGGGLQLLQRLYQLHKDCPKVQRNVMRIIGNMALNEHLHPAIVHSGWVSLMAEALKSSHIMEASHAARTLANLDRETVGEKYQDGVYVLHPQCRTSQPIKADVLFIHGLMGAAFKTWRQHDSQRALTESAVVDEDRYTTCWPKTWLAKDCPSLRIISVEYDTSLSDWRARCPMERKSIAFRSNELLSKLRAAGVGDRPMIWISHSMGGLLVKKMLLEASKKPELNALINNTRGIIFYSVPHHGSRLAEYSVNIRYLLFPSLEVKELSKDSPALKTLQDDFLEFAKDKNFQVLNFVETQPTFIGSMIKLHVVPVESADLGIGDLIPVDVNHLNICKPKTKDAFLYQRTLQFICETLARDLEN
Sequence of UniProt O00141 (whole entry, looked up): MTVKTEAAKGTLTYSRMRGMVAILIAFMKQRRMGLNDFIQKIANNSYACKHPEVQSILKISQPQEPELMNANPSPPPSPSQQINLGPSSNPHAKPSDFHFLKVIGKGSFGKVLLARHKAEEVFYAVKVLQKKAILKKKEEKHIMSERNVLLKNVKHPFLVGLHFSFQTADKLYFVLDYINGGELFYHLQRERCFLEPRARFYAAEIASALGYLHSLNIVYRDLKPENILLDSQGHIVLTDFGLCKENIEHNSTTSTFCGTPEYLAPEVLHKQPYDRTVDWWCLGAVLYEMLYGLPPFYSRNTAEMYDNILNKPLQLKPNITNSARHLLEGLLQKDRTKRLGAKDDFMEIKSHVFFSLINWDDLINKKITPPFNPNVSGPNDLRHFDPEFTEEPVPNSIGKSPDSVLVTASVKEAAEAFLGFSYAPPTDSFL

CC(C)CC(O)(CC(C)C)c1cn(C(=O)N2CCCC2)nn1
activity ratio-of-ratios (Protein SERAC1 (Serac1, Mus musculus, UniProt Q3U213); probe labelling, inhibitor, refers to: Serac1; mouse, brain; i.p., 0.8 mg/kg, 4 h, protein level; reference: treated over vehicle mice, lower = stronger inhibition): 2.02

O=C1NC(=O)c2c1c1cc(F)c[n+]3c1c1c2c2cc(O)ccc2[n]1[Ru-4]312([N]=C=S)[S+]3CC[S+]1CC[S+]2CC3 (stereo not drawn)
remaining activity (Serine/threonine-protein kinase Sgk1 (SGK1, Homo sapiens, UniProt O00141); enzyme activity; 100 nM, human enzyme, added: 10 µM ATP; reference: untreated): 51%

CN(C)[C@H]1C[C@@]23CC[C@@]4(O2)C(=CC[C@]2(C)[C@@H](c5ccc6ccncc6c5)CC[C@H]24)C=C3[C@@H](O)[C@@H]1O
inhibition (Serine/threonine-protein kinase 32C (STK32C, Homo sapiens, UniProt Q86UX6); ATP probe labelling, inhibitor, KiNativ profiling; 1 µM): 2.6%

CS(C)(=O)=Nc1ccc(-c2ccc(-c3nc4cc(O[C@@H]5CO[C@H]6[C@@H]5OC[C@H]6O)[nH]c4cc3F)cc2)cc1
inhibition (NT-3 growth factor receptor (NTRK3, Homo sapiens, UniProt Q16288); enzyme activity, inhibitor; 10 µM): 24%

N[C@H](C(=O)N1CCCC1)C1CCN(c2nccc3c(-c4ncc(Cl)cc4Cl)cccc23)CC1
inhibition (Protein-arginine deiminase type-2 (PADI2, Homo sapiens, UniProt Q9Y2J8); enzyme activity, inhibitor; 3.84 µM, added: Ca2+ 0.25 mM): 98.7%

Nc1ccc(/C=C/C(=O)N2CCc3c(oc4c(-c5ccc(F)cc5)cc(-c5ccc(C(=O)N6CCC(F)(F)CC6)cn5)cc34)C2)cn1
remaining binding (Activin receptor type-1B (ACVR1B, Homo sapiens, UniProt P36896); binding, competition with immobilised ligand; 1 µM): 98%

Cc1sc2c(c1C)C(c1ccc(Cl)cc1)=N[C@@H](CC(=O)OC(C)(C)C)c1nnc(C)n1-2
TΔS (Bromodomain-containing protein 3, BD1 (BRD3, Homo sapiens, UniProt Q15059); isothermal titration calorimetry; 15 °C, reverse titration): 2.97 kcal/mol

O=C1NC2(CC2)COc2ncc(F)cc2[C@H]2COCCN2c2ccn3ncc1c3n2
neutrophils (Sprague-Dawley rat, male, blood; oral, 2.5 mg/kg/day, end of treatment, 4-week repeated-dose toxicity; reference: leukocytes): 18.5 ± 6.2%

CC(C)[C@H]1NC(=O)C[C@H]2/C=C/CCSSC[C@@H](NC1=O)C(=O)N[C@H](Cc1cccc3ccccc13)C(=O)NCC(=O)O2
inhibition (Tyrosine-protein kinase Lyn, isoform A (LYN, Homo sapiens, UniProt P07948); 10 µM): -1%

For quick reference, copied from above:
O=C1NC(=O)c2c1c1cc(F)c[n+]3c1c1c2c2cc(O)ccc2[n]1[Ru-4]312([N]=C=S)[S+]3CC[S+]1CC[S+]2CC3 (stereo not drawn)
remaining activity (Serine/threonine-protein kinase Sgk1 (SGK1, Homo sapiens, UniProt O00141); enzyme activity; 100 nM, human enzyme, added: 10 µM ATP; reference: untreated): 51%
